Assay results collected from several papers.
Each numbered part is a random draw from the data of one study; scales do not carry over between parts. Several values in a cell are separate wells, animals, samples, runs or records.
Sequence of UniProt P10721 (whole entry, unmodified, looked up): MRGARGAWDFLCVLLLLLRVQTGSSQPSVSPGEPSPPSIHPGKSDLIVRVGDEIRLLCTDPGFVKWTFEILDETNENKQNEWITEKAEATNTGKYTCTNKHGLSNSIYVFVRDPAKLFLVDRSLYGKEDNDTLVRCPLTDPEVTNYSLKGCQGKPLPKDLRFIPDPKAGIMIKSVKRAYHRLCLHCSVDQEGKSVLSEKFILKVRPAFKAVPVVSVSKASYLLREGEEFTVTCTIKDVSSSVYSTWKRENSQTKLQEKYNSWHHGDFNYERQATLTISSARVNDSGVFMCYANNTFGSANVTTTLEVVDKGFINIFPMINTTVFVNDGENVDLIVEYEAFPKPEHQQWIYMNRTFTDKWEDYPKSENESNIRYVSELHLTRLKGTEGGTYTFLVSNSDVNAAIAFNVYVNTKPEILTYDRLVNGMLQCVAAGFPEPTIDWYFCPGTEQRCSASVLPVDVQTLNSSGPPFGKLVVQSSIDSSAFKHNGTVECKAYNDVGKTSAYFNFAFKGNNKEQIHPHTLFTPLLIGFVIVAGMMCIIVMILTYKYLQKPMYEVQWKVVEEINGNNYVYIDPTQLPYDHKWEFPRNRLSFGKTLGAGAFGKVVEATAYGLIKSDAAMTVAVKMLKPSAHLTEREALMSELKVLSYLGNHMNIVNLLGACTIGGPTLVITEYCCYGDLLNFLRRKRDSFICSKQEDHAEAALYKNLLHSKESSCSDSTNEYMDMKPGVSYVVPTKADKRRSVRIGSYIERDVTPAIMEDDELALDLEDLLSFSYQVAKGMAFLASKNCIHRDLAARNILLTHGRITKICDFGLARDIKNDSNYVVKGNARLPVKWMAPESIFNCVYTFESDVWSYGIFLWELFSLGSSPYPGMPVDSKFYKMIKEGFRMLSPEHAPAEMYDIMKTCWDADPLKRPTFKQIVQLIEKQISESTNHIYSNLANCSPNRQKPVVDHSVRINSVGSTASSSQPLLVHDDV
Sequence of UniProt Q99558 (whole entry, looked up): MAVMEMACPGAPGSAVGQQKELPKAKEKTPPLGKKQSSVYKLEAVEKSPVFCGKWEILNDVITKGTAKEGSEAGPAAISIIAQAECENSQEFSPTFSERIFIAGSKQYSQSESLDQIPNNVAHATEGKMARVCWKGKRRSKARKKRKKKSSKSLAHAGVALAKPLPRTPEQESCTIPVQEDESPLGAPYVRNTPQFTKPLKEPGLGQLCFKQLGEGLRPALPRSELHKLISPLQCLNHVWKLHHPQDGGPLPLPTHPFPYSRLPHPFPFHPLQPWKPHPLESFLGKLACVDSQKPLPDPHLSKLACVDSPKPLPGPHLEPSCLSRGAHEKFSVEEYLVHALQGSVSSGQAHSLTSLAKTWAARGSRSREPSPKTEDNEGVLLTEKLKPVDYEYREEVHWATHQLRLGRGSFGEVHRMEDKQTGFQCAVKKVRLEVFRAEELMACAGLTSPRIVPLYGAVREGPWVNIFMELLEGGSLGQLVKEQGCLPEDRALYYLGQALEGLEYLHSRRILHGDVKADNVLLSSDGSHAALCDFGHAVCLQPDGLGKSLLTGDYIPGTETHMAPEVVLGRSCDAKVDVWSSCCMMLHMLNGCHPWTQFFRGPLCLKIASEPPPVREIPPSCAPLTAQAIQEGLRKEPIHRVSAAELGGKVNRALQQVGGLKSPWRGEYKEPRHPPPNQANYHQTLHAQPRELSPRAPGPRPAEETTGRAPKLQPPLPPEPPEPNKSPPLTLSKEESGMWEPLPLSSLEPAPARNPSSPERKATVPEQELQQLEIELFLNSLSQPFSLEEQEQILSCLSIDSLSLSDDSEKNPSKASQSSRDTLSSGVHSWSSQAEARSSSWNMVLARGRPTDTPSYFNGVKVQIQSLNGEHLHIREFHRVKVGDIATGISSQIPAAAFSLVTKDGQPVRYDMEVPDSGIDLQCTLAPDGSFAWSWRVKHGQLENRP
Sequence of UniProt P42681 (whole entry, looked up): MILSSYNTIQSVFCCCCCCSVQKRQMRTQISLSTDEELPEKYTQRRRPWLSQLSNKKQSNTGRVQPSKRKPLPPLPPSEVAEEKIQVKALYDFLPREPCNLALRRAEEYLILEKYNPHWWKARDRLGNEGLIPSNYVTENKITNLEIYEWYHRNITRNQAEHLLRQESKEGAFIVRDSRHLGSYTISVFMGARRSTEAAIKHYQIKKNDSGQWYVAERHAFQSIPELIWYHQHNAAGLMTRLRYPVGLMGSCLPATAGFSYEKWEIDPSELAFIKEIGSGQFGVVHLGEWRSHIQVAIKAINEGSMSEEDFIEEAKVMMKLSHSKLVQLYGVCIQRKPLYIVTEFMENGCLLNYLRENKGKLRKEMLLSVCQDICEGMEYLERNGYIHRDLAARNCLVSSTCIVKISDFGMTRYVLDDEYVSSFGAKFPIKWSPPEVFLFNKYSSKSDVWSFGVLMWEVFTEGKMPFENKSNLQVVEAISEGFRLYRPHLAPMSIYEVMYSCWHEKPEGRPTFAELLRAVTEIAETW
Sequence of UniProt Q9UL54 (whole entry, looked up): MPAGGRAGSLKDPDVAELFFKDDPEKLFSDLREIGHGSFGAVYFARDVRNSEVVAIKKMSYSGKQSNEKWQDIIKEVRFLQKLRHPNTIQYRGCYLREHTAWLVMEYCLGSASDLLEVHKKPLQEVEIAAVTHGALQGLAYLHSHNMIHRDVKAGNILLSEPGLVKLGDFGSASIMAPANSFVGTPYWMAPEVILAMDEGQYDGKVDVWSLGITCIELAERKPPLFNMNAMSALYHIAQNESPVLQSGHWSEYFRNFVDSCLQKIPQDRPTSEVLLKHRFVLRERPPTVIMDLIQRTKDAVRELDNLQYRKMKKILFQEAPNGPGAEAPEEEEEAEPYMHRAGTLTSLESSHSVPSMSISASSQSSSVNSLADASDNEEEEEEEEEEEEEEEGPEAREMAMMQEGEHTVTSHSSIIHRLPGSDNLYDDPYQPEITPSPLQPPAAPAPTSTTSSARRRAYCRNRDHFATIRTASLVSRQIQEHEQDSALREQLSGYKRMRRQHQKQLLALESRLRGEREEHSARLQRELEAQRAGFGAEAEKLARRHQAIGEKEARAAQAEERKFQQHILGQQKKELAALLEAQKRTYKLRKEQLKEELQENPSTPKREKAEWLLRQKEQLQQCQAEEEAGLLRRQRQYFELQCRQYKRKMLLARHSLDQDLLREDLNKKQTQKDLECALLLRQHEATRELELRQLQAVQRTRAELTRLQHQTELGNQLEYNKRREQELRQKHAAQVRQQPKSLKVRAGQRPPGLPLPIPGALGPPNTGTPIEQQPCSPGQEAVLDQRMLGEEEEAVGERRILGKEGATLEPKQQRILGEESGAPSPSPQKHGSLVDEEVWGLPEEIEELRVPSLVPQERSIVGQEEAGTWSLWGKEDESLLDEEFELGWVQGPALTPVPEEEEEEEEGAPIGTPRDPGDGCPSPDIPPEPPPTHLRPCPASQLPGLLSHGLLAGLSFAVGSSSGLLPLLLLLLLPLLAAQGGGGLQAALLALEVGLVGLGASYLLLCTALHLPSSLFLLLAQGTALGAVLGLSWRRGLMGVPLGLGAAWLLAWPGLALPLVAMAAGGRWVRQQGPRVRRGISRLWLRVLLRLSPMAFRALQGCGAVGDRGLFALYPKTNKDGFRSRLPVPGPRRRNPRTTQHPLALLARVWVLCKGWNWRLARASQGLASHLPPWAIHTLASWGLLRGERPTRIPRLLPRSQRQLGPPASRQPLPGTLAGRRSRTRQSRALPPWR
Sequence of UniProt O00506 (whole entry, looked up): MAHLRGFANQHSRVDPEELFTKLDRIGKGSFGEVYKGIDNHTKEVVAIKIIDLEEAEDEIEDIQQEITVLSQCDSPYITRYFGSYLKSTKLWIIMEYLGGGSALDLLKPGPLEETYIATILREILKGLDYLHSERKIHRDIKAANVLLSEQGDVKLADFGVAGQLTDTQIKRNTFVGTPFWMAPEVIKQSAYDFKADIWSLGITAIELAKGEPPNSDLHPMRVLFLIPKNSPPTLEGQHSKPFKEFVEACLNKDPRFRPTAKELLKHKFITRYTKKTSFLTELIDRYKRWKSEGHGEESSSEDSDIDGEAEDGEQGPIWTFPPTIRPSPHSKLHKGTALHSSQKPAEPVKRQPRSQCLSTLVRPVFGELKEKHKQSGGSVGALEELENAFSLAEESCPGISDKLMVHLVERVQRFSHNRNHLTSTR

Sample 1
Structure (SMILES): Cc1ccc(NC(=O)c2ccnc(C(F)(F)F)c2)cc1-c1cc(OCCO)nc(N2CCOCC2)c1
Observed: binding
Tested at: 1 µM
| target | assay | remaining binding [%] |
| --- | --- | --- |
| Receptor-type tyrosine-protein kinase FLT3 (FLT3, Homo sapiens, UniProt P36888, D835H) | – | 68 |
| Macrophage colony-stimulating factor 1 receptor (CSF1R, Homo sapiens, UniProt P07333) | competition with immobilised ligand | 93 |
| Serine/threonine-protein kinase TAO2 (TAOK2, Homo sapiens, UniProt Q9UL54) | competition with immobilised ligand | 80 |
| Serine/threonine-protein kinase Nek11 (NEK11, Homo sapiens, UniProt Q8NG66) | competition with immobilised ligand | 88 |
| Tyrosine-protein kinase TXK (TXK, Homo sapiens, UniProt P42681) | competition with immobilised ligand | 97 |
| Serine/threonine-protein kinase 35 (STK35, Homo sapiens, UniProt Q8TDR2) | competition with immobilised ligand | 98 |
| Serine/threonine-protein kinase 25 (STK25, Homo sapiens, UniProt O00506) | competition with immobilised ligand | 100 |
| Serine/threonine-protein kinase 36 (STK36, Homo sapiens, UniProt Q9NRP7) | competition with immobilised ligand | 90 |
| Activin receptor type-2B (ACVR2B, Homo sapiens, UniProt Q13705) | competition with immobilised ligand | 87 |

Sample 2
SMILES: Cc1nccc(COC(=O)N2C[C@@H]3[C@@H](CNC(=O)c4ccc5[nH]nnc5c4)[C@@H]3C2)n1
Method: competition with immobilised ligand
Tested at: 1 µM
| target | assay | remaining binding [%] |
| --- | --- | --- |
| Serine/threonine-protein kinase PAK 2 (PAK2, Homo sapiens, UniProt Q13177) | cell-free assay | 100 |
| RAC-alpha serine/threonine-protein kinase (AKT1, Homo sapiens, UniProt P31749) | cell-free assay | 100 |
| Serine/threonine-protein kinase 38 (STK38, Homo sapiens, UniProt Q15208) | cell-free assay | 100 |
| Receptor tyrosine-protein kinase erbB-3 (ERBB3, Homo sapiens, UniProt P21860) | cell-free assay | 59 |
| Tyrosine-protein kinase Srms (SRMS, Homo sapiens, UniProt Q9H3Y6) | cell-free assay | 87 |
| Non-receptor tyrosine-protein kinase TNK1 (TNK1, Homo sapiens, UniProt Q13470) | cell-free assay | 66 |
| Hepatocyte growth factor receptor (MET, Homo sapiens, UniProt P08581) | cell-free assay | 94 |
| Serine/threonine-protein kinase Nek10 (NEK10, Homo sapiens, UniProt Q6ZWH5) | cell-free assay | 92 |
| Dual specificity tyrosine-phosphorylation-regulated kinase 1A (DYRK1A, Homo sapiens, UniProt Q13627) | cell-free assay | 81 |
| Mast/stem cell growth factor receptor Kit (KIT, Homo sapiens, UniProt P10721, L576P) | cell-free assay | 89 |
| Mitogen-activated protein kinase kinase kinase 14 (MAP3K14, Homo sapiens, UniProt Q99558) | cell-free assay | 66 |
| Protein kinase C delta type (PRKCD, Homo sapiens, UniProt Q05655) | cell-free assay | 95 |
| Ribosomal protein S6 kinase alpha-4, C-terminal kinase domain (RPS6KA4, Homo sapiens, UniProt O75676) | cell-free assay | 90 |
| Dual specificity protein kinase CLK1 (CLK1, Homo sapiens, UniProt P49759) | cell-free assay | 100 |
| Mast/stem cell growth factor receptor Kit (KIT, Homo sapiens, UniProt P10721, T670I/V559D) | cell-free assay | 95 |
| Mast/stem cell growth factor receptor Kit (KIT, Homo sapiens, UniProt P10721, V559D/V654A) | cell-free assay | 41 |
| Serine/threonine-protein kinase ICK (CILK1, Homo sapiens, UniProt Q9UPZ9) | binding | 100 |

Sample 3
SMILES: Cn1cnc(Cn2ccc3ccc(CNCc4[nH]c5ccccc5c4[C@H]4NC(=O)c5ccc(O)cc54)cc32)c1
Target: GTPase KRas (KRAS, Homo sapiens, UniProt P01116, G12C)
Observed: binding
Action: competitor
Method: NanoBRET
Cells: HEK293
Relative to: vehicle and 20 µM BI compound
| conditions | normalized BRET |
| --- | --- |
| 2.22 µM, 2 h | 13.7% and 14.2% and 12.2% and 11.6% |
| 27.4 nM, 0.5 h | 102% and 86.3% and 100% and 98.5% |
| 6.67 µM, 0.5 h | 5.67% and 6.95% and 10.3% and 7.66% |
| 27.4 nM, 1 h | 111% and 91.2% and 95.7% and 95.2% |
| 1.02 nM, 2 h | 97.9% and 98.7% and 106% and 93.6% |

Sample 4
Organism: Sarcocystis neurona
Observed: parasite growth
Tested at: 10 µM
Notes: secondary screen
| Structure (SMILES) | inhibition [%] |
| --- | --- |
| CSc1nc2cc(Cl)c(Oc3cccc(Cl)c3Cl)cc2[nH]1 | -9.2 |
| Oc1c(Cl)cc(Cl)c(Cl)c1Cc1c(O)c(Cl)cc(Cl)c1Cl | 70.3 |
| CC(C)(C)NCC(O)COc1cccc2c1CC(O)C(O)C2 (stereo not drawn) | -24.3 |
| C=CC[C@@H]1/C=C(\C)C[C@H](C)C[C@H](OC)[C@H]2O[C@@](O)(C(=O)C(=O)N3CCCC[C@H]3C(=O)O[C@H](/C(C)=C/[C@@H]3CC[C@@H](O)[C@H](OC)C3)[C@H](C)[C@@H](O)CC1=O)[C@H](C)C[C@@H]2OC | 10.3 |
| CC1=C(/C=C/C(C)=C/C=C/C(C)=C/C(=O)O)C(C)(C)CCC1 | -45.2 |
| CC(C)Cc1ccc(C(C)C(=O)O)cc1 (stereo not drawn) | -30.8 |
| CCOC(=O)C1=C(C)NC(C)=C(C(=O)OC)C1c1cccc([N+](=O)[O-])c1 (stereo not drawn) | -36.6 |
| Cc1c(O)c(=O)ccn1C | -38.7 |

Repeated from above (sample 3):
| conditions | normalized BRET |
| --- | --- |
| 2.22 µM, 2 h | 13.7% and 14.2% and 12.2% and 11.6% |
| 27.4 nM, 0.5 h | 102% and 86.3% and 100% and 98.5% |
| 6.67 µM, 0.5 h | 5.67% and 6.95% and 10.3% and 7.66% |
